Results from different studies.
Compare with care: the assays were run in different laboratories. Values joined by “and” are separate records of one study, mostly repeats; a detail may differ. ± gives the spread as reported.

| Structure (SMILES) | cell line | assay | system | conditions | scale | quantity | result |
| --- | --- | --- | --- | --- | --- | --- | --- |
| O=[N+]([O-])c1ccc(-c2nn(-c3ccccc3)c3sc(NC(c4ccccc4O)P(=O)(Oc4ccccc4)Oc4ccccc4)nc23)cc1 (stereo not shown) | Vero cells | SRB |  | 0.1 µM, 10% fetal bovine serum |  | viability | 98.2% |
| Nc1cnn(-c2ccccc2)c(=O)c1Cl | HEK293-H PPARγ-UAS-bla cells | cell confluency, IncuCyte imaging |  | 24 h, nominal concentration |  | IC10 | 830 µM |
| O=c1ccc2ccccc2o1 | HepaRG 3D spheroids | caspase-3/7 intensity |  | 72 h, high-content imaging |  | point of departure | 539 µM |
| C[C@H](NC(=O)[C@H](CCCNC(=N)N)NC(=O)[C@H](Cc1c[nH]c2ccccc12)NC(=O)[C@H](CCCNC(=N)N)NC(=O)[C@H](Cc1c[nH]c2ccccc12)NC(=O)[C@H](Cc1c[nH]c2ccccc12)NC(=O)[C@H](Cc1c[nH]c2ccccc12)NC(=O)[C@H](CCCNC(=N)N)NC(=O)[C@H](Cc1c[nH]c2ccccc12)NC(=O)[C@H](CCCNC(=N)N)NC(=O)CN)C(N)=O | HD11 macrophages |  |  |  |  | LC50 | > 512 µM |
| Oc1ccc(C2(c3ccc(O)cc3)c3ccccc3-c3ccccc32)cc1 | HepG2 spheroids, dissociated | annexin V-FITC/PI flow cytometry |  | 0.1 µM, 24 h |  | viable cells | 67.9 ± 10.7% |
| Cc1cccc(/C=N/Nc2cc(N3CCOCC3)nc(OCCc3ccccn3)n2)c1 | 293T-ACE2 |  |  | 40 (unit not given) |  | CC50 | 0.24 µM |
| Nc1nc(CC(O)c2ccccc2C(F)(F)F)c(Br)c(=O)[nH]1 (stereo not shown) | HEL human embryonic lung fibroblasts | cell morphology alteration |  |  |  | minimum cytotoxic concentration | > 100 µM |
| N=C(N)NCCC[C@H](NC(=O)CN)C(=O)N[C@@H](Cc1c[nH]c2ccccc12)C(=O)N[C@@H](CCCNC(=N)N)C(=O)N[C@@H](Cc1c[nH]c2ccccc12)C(=O)N[C@@H](Cc1c[nH]c2ccccc12)C(=O)N[C@@H](Cc1c[nH]c2ccccc12)C(=O)N[C@@H](CCCNC(=N)N)C(=O)N[C@@H](Cc1c[nH]c2ccccc12)C(=O)N[C@@H](CCCNC(=N)N)C(=O)N[C@@H](Cc1ccccc1)C(N)=O | HD11 macrophages |  |  |  |  | LC50 | > 512 µM |
| CC[C@H](NC(=O)[C@H](CS(=O)(=O)CC1CC1)N[C@@H](c1ccc(F)cc1)C(F)(F)F)C(=O)C(=O)NC1CC1 | 293T-ACE2 |  |  | 40 (unit not given) |  | CC50 | > 2.5 µM |
| O=S(=O)(c1ccc(O)cc1)c1ccc(O)cc1 | HepG2 spheroids, dissociated | annexin V-FITC/PI flow cytometry |  | 1 µM, 24 h |  | viable cells | 67.5 ± 15.8% |
| CC(C)(C)NCc1ccc(Nc2ccnc3cc(Cl)ccc23)cc1O | 293T-ACE2 |  |  | 40 (unit not given) |  | CC50 | > 2.5 µM |
| O=C(O)C(F)(F)C(F)(F)C(F)(F)C(F)(F)C(F)(F)F | hTERT-RPTEC parental |  |  | concentration not given, 96-well plate |  | LDH release | 28.9 mU/mL and 28.6 mU/mL and 29.5 mU/mL and 29.9 mU/mL |
| CC(C)[C@H](NC(=O)[C@H](CCCNC(=N)N)NC(=O)[C@H](Cc1c[nH]c2ccccc12)NC(=O)[C@H](CCCNC(=N)N)NC(=O)[C@H](Cc1c[nH]c2ccccc12)NC(=O)[C@H](Cc1c[nH]c2ccccc12)NC(=O)[C@H](Cc1c[nH]c2ccccc12)NC(=O)[C@H](CCCNC(=N)N)NC(=O)[C@H](Cc1c[nH]c2ccccc12)NC(=O)[C@H](CCCNC(=N)N)NC(=O)CN)C(N)=O | HD11 macrophages |  |  |  |  | LC50 | > 512 µM |
| N#C[C@@]1(n2ccc(N)nc2=O)O[C@H](CO)[C@@H](O)[C@H]1O | CHO |  |  | 130 µM, without S9 |  | micronucleated cells | 0.33% |
| CN(C)c1ccc(C(Nc2nc3c(-c4ccc([N+](=O)[O-])cc4)nn(-c4ccccc4)c3s2)P(=O)(Oc2ccccc2)Oc2ccccc2)cc1 (stereo not shown) | Vero cells | SRB |  | 100 µM, 10% fetal bovine serum |  | viability | 94.5% |
| O=C1/C(=C/c2ccc(Br)cc2)CN(Cc2ccc3ccccc3c2)C/C1=C\c1ccc(Br)cc1 | SH-SY5Y | MTT |  | 0.2 to 40 µM, 24 h |  | viability | not toxic |
| C[C@H](NC(=O)[C@H](Cc1ccc(O)cc1)NC(=O)[C@H](CCCNC(=N)N)NC(=O)[C@H](CCCNC(=N)N)NC(=O)[C@H](CCCNC(=N)N)NC(=O)[C@@H](N)CCCNC(=N)N)C(=O)N[C@@H](CCCNC(=N)N)C(=O)N1CCC[C@H]1C(=O)N[C@@H](Cc1ccc(O)cc1)C(=O)N[C@@H](Cc1ccc(O)cc1)C(=O)N[C@@H](CCCNC(=N)N)C(=O)N[C@@H](CCCNC(=N)N)C(=O)N[C@@H](CCCNC(=N)N)C(=O)O | DF-1 | LDH release |  | 5 µM, 1 h |  | viability | 95.9 ± 1.32% |
| CC(C)(Oc1ccc(CCNC(=O)c2ccc(Cl)cc2)cc1)C(=O)O | HEK293-H PPARγ-UAS-bla cells | cell confluency, IncuCyte imaging |  | 24 h, nominal concentration |  | IC10 | 533 µM |
| Oc1ccc(C(c2ccc(O)cc2)(C(F)(F)F)C(F)(F)F)cc1 | HepG2 spheroids, dissociated | annexin V-FITC/PI flow cytometry |  | 0.1 µM, 24 h |  | late apoptotic cells | 10.5 ± 4.59% |

| Structure (SMILES) | cell line | assay | system | conditions | scale | quantity | result |
| --- | --- | --- | --- | --- | --- | --- | --- |
| COc1cc2c(c(OC)c1OC)-c1ccc(OC)c(=O)cc1[C@@H](NC(C)=O)CC2 | CHO-WBL |  |  | 8 µg/mL, 3 h, without S9 |  | micronuclei per binucleated cell | 0.063 |
| N#CCc1c[nH]c2ccccc12 | uninfected HCT-8 | cytotoxicity, Hoechst nuclei count |  |  |  | EC50 | 1590 µM |
| CC[C@H](C)[C@H](NC(=O)[C@@H](N)CC(N)=O)C(=O)N1CCC[C@H]1C(=O)N1CCC[C@H]1C(=O)N[C@@H](CC(C)C)C(=O)N[C@H](C(=O)N[C@@H](CCC(N)=O)C(=O)N[C@H](C(=O)N1CCC[C@H]1C(=O)N[C@H](C(=O)N[C@H](C(=O)N[C@H](C(=O)N1CCC[C@H]1C(=O)N1CCC[C@H]1C(=O)N[C@@H](Cc1ccccc1)C(=O)N[C@@H](CC(C)C)C(=O)N[C@@H](CCC(N)=O)C(=O)N1CCC[C@H]1C(=O)N[C@@H](CCC(=O)O)C(=O)O)C(C)C)C(C)C)C(C)C)[C@@H](C)O)[C@@H](C)O | Caco-2 monolayers |  |  | 10 µM, 60 min, added: Gly-Pro 10 mM preincubated 30 min | reference: no Gly-Pro | transport rate | 67.9 ± 5% |
| CN(C)CCCC1(c2ccc(F)cc2)OCc2cc(C#N)ccc21 (stereo not shown) | SH-SY5Y | cell viability, propidium iodide staining |  | 24 h, nominal concentration |  | IC10 | 64.7 µM |
| N=C(N)NCCC[C@H](NC(=O)[C@H](CCCNC(=N)N)NC(=O)[C@H](CCCNC(=N)N)NC(=O)[C@H](CCC(N)=O)NC(=O)[C@H](CCCNC(=N)N)NC(=O)[C@H](CCCNC(=N)N)NC(=O)[C@H](CCCCN)NC(=O)[C@H](CCCCN)NC(=O)[C@H](CCCNC(=N)N)NC(=O)CNC(=O)[C@@H](N)Cc1ccc(O)cc1)C(=O)O | DF-1 |  |  | 25 µM, 12 h | reference: untreated cells | viability | 104.9 ± 0.29% |
| Fc1ccc(Oc2ccnc3cc(Cl)cc(Cl)c23)cc1 | HEK293-H PPARγ-UAS-bla cells | cell viability, IncuCyte imaging |  | 24 h, freely dissolved concentration |  | IC10 | 0.177 µM |
| Cc1c(O)c(O)cc2c1CC=C1[C@@]2(C)CC[C@@]2(C)[C@@H]3C[C@](C)(C(=O)O)CC[C@]3(C)CC[C@]12C | MYBPC3 iPSC cardiomyocytes | cytotoxicity |  | 24 h |  | EC50 | 18 µM |
| Cc1cc(C)c(/C=C/c2nc(N)[nH]c(=O)c2Br)c(C)c1 | HEL human embryonic lung fibroblasts | cell morphology alteration |  |  |  | minimum cytotoxic concentration | 100 µM |
| CNC(=O)Oc1cc(C)c(SC)c(C)c1 | SH-SY5Y | cell viability, propidium iodide staining |  | 24 h, nominal concentration |  | IC10 | 30.7 µM |
| N=C(N)NCCC[C@H](NC(=O)[C@H](CCCNC(=N)N)NC(=O)[C@H](CCCCN)NC(=O)[C@H](CCCNC(=N)N)NC(=O)[C@H](Cc1ccccc1)NC(=O)[C@H](Cc1ccc(O)cc1)NC(=O)[C@H](CCCNC(=N)N)NC(=O)[C@H](CCCNC(=N)N)NC(=O)[C@H](CCCNC(=N)N)NC(=O)[C@H](CCCNC(=N)N)NC(=O)[C@H](CCCNC(=N)N)NC(=O)[C@H](Cc1ccc(O)cc1)NC(=O)[C@H](CCCNC(=N)N)NC(=O)[C@@H](N)CCCNC(=N)N)C(=O)O | DF-1 | LDH release |  | 3 µM, 1 h |  | viability | 99.3 ± 2.91% |
| CC(c1ccccc1)(c1ccc(O)cc1)c1ccc(O)cc1 | HepG2 spheroids | annexin V-FITC/PI flow cytometry |  | 10 µM, 24 h |  | late apoptotic cells | 8.26 ± 5.47% |
| Cc1cc(O)ccc1Cl | SH-SY5Y | cell viability, propidium iodide staining |  | 24 h, freely dissolved concentration |  | IC10 | 367 µM |
| CC(C)(c1ccc(O)cc1)c1ccc(O)cc1 | HepG2 spheroids, dissociated | annexin V-FITC/PI flow cytometry |  | 0.1 µM, 24 h |  | late apoptotic cells | 8.77 ± 1.83% |
| O=C(O)C(F)(F)C(F)(F)C(F)(F)C(F)(F)C(F)(F)C(F)(F)C(F)(F)C(F)(F)C(F)(F)F | hTERT-RPTEC parental | LDH release | culture medium | concentration not given, 24 h, 96-well plate |  | LDH activity in medium | 25.6 mU/mL |
| CC(C)(O)Cc1nc(N)[nH]c(=O)c1Br | HEL human embryonic lung fibroblasts | cell morphology alteration |  |  |  | minimum cytotoxic concentration | > 100 µM |
| N=C(N)NCCC[C@H](NC(=O)[C@H](Cc1c[nH]c2ccccc12)NC(=O)[C@H](CCCNC(=N)N)NC(=O)[C@H](Cc1c[nH]c2ccccc12)NC(=O)[C@H](Cc1c[nH]c2ccccc12)NC(=O)[C@H](Cc1c[nH]c2ccccc12)NC(=O)[C@H](CCCNC(=N)N)NC(=O)[C@H](Cc1c[nH]c2ccccc12)NC(=O)[C@@H](N)CCCNC(=N)N)C(=O)N[C@@H](Cc1ccccc1)C(N)=O | HD11 macrophages |  |  |  |  | LC50 | 209 µM |
| Cc1cc(C(C)(C)c2ccc(O)c(C)c2)ccc1O | HepG2 spheroids, dissociated | annexin V-FITC/PI flow cytometry |  | 0.10 µM, 96 h |  | viable cells | 43.5 ± 8.22% |
| O=S(=O)(O)C(F)(F)C(F)(F)C(F)(F)C(F)(F)F | hTERT-RPTEC parental | LDH release | culture medium | concentration not given, 24 h, 96-well plate |  | LDH activity in medium | 24.3 mU/mL |

Excerpt of the above:
| Structure (SMILES) | cell line | assay | system | conditions | scale | quantity | result |
| --- | --- | --- | --- | --- | --- | --- | --- |
| Cc1cc(C)c(/C=C/c2nc(N)[nH]c(=O)c2Br)c(C)c1 | HEL human embryonic lung fibroblasts | cell morphology alteration |  |  |  | minimum cytotoxic concentration | 100 µM |
| CNC(=O)Oc1cc(C)c(SC)c(C)c1 | SH-SY5Y | cell viability, propidium iodide staining |  | 24 h, nominal concentration |  | IC10 | 30.7 µM |
| N=C(N)NCCC[C@H](NC(=O)[C@H](CCCNC(=N)N)NC(=O)[C@H](CCCCN)NC(=O)[C@H](CCCNC(=N)N)NC(=O)[C@H](Cc1ccccc1)NC(=O)[C@H](Cc1ccc(O)cc1)NC(=O)[C@H](CCCNC(=N)N)NC(=O)[C@H](CCCNC(=N)N)NC(=O)[C@H](CCCNC(=N)N)NC(=O)[C@H](CCCNC(=N)N)NC(=O)[C@H](CCCNC(=N)N)NC(=O)[C@H](Cc1ccc(O)cc1)NC(=O)[C@H](CCCNC(=N)N)NC(=O)[C@@H](N)CCCNC(=N)N)C(=O)O | DF-1 | LDH release |  | 3 µM, 1 h |  | viability | 99.3 ± 2.91% |
| CC(c1ccccc1)(c1ccc(O)cc1)c1ccc(O)cc1 | HepG2 spheroids | annexin V-FITC/PI flow cytometry |  | 10 µM, 24 h |  | late apoptotic cells | 8.26 ± 5.47% |
| Cc1cc(O)ccc1Cl | SH-SY5Y | cell viability, propidium iodide staining |  | 24 h, freely dissolved concentration |  | IC10 | 367 µM |
| CC(C)(c1ccc(O)cc1)c1ccc(O)cc1 | HepG2 spheroids, dissociated | annexin V-FITC/PI flow cytometry |  | 0.1 µM, 24 h |  | late apoptotic cells | 8.77 ± 1.83% |
